Assay results of several laboratories.
Numbered parts are unrelated; each lists some results of a single study. Positions count from the first letter of the parent shown.

Sample 1 — Substitution: S9Y; technique: DHFR PCA, deep sequencing; medium: yeast; relative to: wild-type fitted maximum; direction: higher = stronger binding
Target: ABI1, truncated, D143A, DHFR fusion (Arabidopsis thaliana)
Setting: methotrexate growth selection, single substitutions
Starting sequence: PYL1, truncated, DHFR fusion (Arabidopsis thaliana); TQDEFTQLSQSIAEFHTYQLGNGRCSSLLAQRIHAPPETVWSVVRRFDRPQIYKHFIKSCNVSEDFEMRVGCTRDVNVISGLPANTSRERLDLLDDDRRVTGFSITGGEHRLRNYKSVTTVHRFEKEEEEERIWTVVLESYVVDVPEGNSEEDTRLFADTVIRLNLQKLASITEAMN; partner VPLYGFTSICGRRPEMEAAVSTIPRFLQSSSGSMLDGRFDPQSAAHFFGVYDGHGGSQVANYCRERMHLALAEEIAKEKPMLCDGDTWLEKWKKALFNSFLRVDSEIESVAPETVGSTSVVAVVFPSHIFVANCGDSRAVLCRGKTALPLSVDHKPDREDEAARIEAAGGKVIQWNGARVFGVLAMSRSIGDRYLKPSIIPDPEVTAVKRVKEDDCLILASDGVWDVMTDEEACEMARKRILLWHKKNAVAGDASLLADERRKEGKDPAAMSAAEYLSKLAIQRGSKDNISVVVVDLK
| added | relative binding score [%] |
| --- | --- |
| (+)-ABA 0.032 µM | 23 |
| (+)-ABA 710 µM | 78.1 |
| (+)-ABA 0 µM | 18.7 |
| (+)-ABA 2500 µM | 95.4 |
| (+)-ABA 0.11 µM | 23.1 |
| (+)-ABA 0.0091 µM | 26.1 |

Sample 2 — technique: RNA Bind-n-Seq; form: RNA; medium: in vitro; tested at: 15 pmol; setting: 4-mer, random 30-nt RNA, single round; added: 3 µM RocA, 2 mM AMP-PNP; relative to: mean of 4-mers; direction: higher = stronger binding
Target: Eukaryotic initiation factor 4A-I (EIF4A1, Homo sapiens, UniProt P60842, residues 1-406, full length assumed)
UniProt P60842, sequence (whole entry, looked up): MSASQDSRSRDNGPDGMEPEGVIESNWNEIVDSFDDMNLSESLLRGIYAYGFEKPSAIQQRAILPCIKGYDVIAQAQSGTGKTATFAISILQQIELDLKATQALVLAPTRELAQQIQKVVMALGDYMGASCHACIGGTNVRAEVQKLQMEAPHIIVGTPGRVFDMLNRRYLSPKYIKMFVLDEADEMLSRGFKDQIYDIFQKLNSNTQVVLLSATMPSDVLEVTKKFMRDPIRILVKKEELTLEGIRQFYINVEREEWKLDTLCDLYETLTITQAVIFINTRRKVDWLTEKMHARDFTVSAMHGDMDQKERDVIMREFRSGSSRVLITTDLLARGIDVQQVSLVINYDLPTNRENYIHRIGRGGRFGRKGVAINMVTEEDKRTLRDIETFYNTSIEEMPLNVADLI
| Oligonucleotide | 4-mer enrichment Z-score |
| --- | --- |
| GUAC | -0.573 |
| AACG | -0.0137 |
| UCAC | -1.71 |
| CCUA | -0.935 |
| UGUG | 1.83 |
| GAAA | 2.47 |
| AUGG | 1.04 |
| GGAC | -0.17 |

Single results of other studies
| Substance | target or system | assay | test system | conditions | endpoint | result |
| --- | --- | --- | --- | --- | --- | --- |
| FLOT1 (Homo sapiens, UniProt O75955) | FLOT2 (Homo sapiens, UniProt Q14254) | cross-linking MS | cells | added: BSPNO | cross-linked residues | K302 to K321 |
| VFTSRIQVI | HLA class I histocompatibility antigen, A alpha chain, allele A*80:01 (Homo sapiens, UniProt P04439) | peptide-MHC binding | peptide | concentration not given | binding | inactive |

A few entries again (sample 2):
| Oligonucleotide | 4-mer enrichment Z-score |
| --- | --- |
| GUAC | -0.573 |
| CCUA | -0.935 |
